Published values from different studies.
Parts stem from different laboratories: compare values within a part only.

Block 1 — method: protein-binding microarray; molecule type: double-stranded DNA, one strand shown; medium: in vitro; concentration: not given; reading: higher = stronger binding
Target: Protein C-ets-1 (ETS1, Homo sapiens, UniProt P14921, residues 1-441, K379A, full length assumed)
UniProt P14921, sequence (whole entry, unmodified, looked up): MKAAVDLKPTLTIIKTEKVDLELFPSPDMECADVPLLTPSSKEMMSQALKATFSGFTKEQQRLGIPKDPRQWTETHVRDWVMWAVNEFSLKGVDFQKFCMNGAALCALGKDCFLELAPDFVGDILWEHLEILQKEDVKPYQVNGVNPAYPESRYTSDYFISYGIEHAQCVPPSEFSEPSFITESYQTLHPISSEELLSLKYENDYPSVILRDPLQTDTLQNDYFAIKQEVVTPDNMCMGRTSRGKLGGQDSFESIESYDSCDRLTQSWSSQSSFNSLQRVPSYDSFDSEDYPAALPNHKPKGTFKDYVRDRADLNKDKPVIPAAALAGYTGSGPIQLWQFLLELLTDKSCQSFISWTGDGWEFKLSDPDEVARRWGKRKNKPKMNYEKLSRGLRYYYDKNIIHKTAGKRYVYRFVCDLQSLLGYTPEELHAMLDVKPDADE
Notes: k-mer, scored over probes, only values ≥0.25
For `CATATCCG`, the E-score was 0.264.
For `TACACACA`, the E-score was 0.291.
`GTGTACAA` has an E-score of 0.269.
`GTTTCCTA` gave an E-score of 0.266.
For `TGACGTCA`, the E-score was 0.305.
`AAGTCGAC` has an E-score of 0.256.
With `CATATACC` the E-score was 0.29.
For `ATAACGTG`, the E-score was 0.286.
With `CGACGGTA` the E-score was 0.325.

Block 2 — method: RNA Bind-n-Seq; molecule type: RNA; medium: in vitro; concentration: 1 µM; notes: whole 134-nt RNA, ends assumed; added: 150 mM KCl; baseline: input library; reading: higher = stronger binding
Target: Ras GTPase-activating protein-binding protein 1, C-terminal RGG region (G3BP1, Homo sapiens, UniProt Q13283)
UniProt Q13283, sequence (whole entry, looked up): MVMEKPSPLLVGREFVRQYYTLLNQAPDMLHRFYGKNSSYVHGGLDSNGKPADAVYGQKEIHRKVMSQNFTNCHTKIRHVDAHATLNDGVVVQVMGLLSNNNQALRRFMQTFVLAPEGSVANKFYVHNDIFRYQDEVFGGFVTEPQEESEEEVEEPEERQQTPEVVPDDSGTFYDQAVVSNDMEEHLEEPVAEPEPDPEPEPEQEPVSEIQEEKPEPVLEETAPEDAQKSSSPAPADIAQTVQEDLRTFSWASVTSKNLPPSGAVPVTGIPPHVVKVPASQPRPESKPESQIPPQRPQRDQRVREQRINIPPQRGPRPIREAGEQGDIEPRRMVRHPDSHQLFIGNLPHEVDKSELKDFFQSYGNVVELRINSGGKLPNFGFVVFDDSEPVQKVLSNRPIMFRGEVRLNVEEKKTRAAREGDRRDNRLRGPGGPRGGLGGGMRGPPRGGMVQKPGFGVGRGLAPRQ
Constant ends, left off below: GGGAGUUCUACAGUCCGACGAUC … UGGAAUUCUCGGGUGUCAAGG
For `ACAAAGCAGGUGGGCAUCUUUGGGAAGUGGGGCAAGGGGGGGAUAGGGAGGGGGGUAACACUUUGGGAACAGGUGGUCCCAGGUCGUUUC`, the log2 enrichment was -0.968.
With `UCCUCAAGUCCUGUGCUACACAUCGUAUGUACCGAAUCGGUGGAGGUUUGGAAAGUAUUAUGUUACGCCGUUCGGAUCUGCACUUCCAGC` the log2 enrichment was -0.98.
`CAAGUCCUGUGCUACACAUCGUAUGUACCGAAUCGGUUUGGAAAAAGGUUUUUGGAAAGUAUUAUGUUACGCCGUUCGGAUCUGCACUUC` gave a log2 enrichment of -1.81.
For `CACAAAAAACACGCACCCACACAGACACAGAGGGAAGGGGUUGGGAUGGGGACAGGGUGCACAGCAGGGCGGGGUAGGACCCCAGCCCCU`, the log2 enrichment was -0.326.
`AAGUCCUGUGCUACACAUCGUAUGUACCGAAUCGGGGUUUGGGGAGGGGUUUGGGGAAAGUAUUAUGUUACGCCGUUCGGAUCUGCACUU` gave a log2 enrichment of 1.9.
With `AAGUCCUGUGCUACACAUCGUAUGUACCGAAUCGGGGUGGGGAAAAAGGGGAGGGGAAAGUAUUAUGUUACGCCGUUCGGAUCUGCACUU` the log2 enrichment was 2.45.
With `AGUCCUGUGCUACACAUCGUAUGUACCGAAUCGGGGAAAGGGGAAAAAGGGGUGGGGAAAGUAUUAUGUUACGCCGUUCGGAUCUGCACU` the log2 enrichment was 2.7.
For `CUCAAGUCCUGUGCUACACAUCGUAUGUACCGAAUCGGUGGAAAAAGGUUUGGAAAGUAUUAUGUUACGCCGUUCGGAUCUGCACUUCCA`, the log2 enrichment was -1.18.
`UGGAGCUACAGAUGGUGUCCUUCCUGCCAGGUGUGUGUGGAGGCCAGUAUGAAGCUGAAAAAGCAGGUGACAGUGUGUGGGGCUGCCAUC` gave a log2 enrichment of 0.196.
With `UCAAGUCCUGUGCUACACAUCGUAUGUACCGAAUCGGGCCCGGGCCCGGCCCGGAAAGUAUUAUGUUACGCCGUUCGGAUCUGCACUUCC` the log2 enrichment was -1.42.

Block 3 — method: protein-binding microarray; molecule type: double-stranded DNA, one strand shown; medium: in vitro; concentration: 250 nM; notes: 60-bp whole probe; added: salmon DNA 0.4 mg/ml; baseline: random background probes; reading: higher = stronger binding; constant ends, left off below: GCCTAGCAC … GTCTTGATTCGCTTGACGCTGCTG
Target: Interferon regulatory factor 7, full length, phosphomimetic (IRF7, Homo sapiens, UniProt Q92985, residues 1-503, S101K/S471D/S472D/S475D/S476D/S477D/S483D/S484D/S487D)
UniProt Q92985, sequence (whole entry, unmodified, looked up): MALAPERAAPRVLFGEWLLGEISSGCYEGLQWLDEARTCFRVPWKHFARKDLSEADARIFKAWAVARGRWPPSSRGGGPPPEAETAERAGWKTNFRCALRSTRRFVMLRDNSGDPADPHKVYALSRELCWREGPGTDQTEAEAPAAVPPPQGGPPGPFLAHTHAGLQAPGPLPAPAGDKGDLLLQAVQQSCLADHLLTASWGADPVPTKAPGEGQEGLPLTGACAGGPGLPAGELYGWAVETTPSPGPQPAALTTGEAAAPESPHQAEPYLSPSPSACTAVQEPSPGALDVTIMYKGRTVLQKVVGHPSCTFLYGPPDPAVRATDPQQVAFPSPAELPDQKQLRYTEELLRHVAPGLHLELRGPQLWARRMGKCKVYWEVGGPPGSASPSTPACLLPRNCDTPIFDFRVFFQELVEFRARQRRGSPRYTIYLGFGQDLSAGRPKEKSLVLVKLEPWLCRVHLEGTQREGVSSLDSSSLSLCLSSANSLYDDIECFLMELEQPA
`TTAGGTTTCCGTCTCGGTTAGTGCTAG` gave a log fluorescence of 2.61 z-score.
`GACGGTCTCAGACTGGAGACGTGCTAG` gave a log fluorescence of -0.455 z-score.
With `TCAGGCCTCTTCATTCATACTGTGCTA` the log fluorescence was -0.469 z-score.
The log fluorescence of `TGAGGTTTCGGTATCGGTTAGTGCTAG` is reported as 10.5 z-score.
`GAAGTTCTTTTTTTCAAGAAGTGCTAG` gave a log fluorescence of 0.911 z-score.
The log fluorescence of `GATGATCTCAGTATCGAGACGTGCTAG` is reported as -0.0301 z-score.
`TATGTTCACTATTTAAGAACGTGCTAG` gave a log fluorescence of 1.53 z-score.
With `GACGGTCCCGGTTTCGGGACGTGCTAG` the log fluorescence was 4.85 z-score.

Mixed results
With `PhoQ, residues 284 288 289 292 302 303 WVSSAF` the fold induction was 0.637 (PhoP, residues 12 14 15 18 19 LHHVQ (Escherichia coli, UniProt P23836); Sort-seq, item: YFP reporter; E. coli; PhoQ-PhoP variant library, added: 10 µM Mg2+; baseline: high Mg2+ state, higher = stronger signaling).

Excerpt of the above (block 1):
For `ATAACGTG`, the E-score was 0.286.
With `CGACGGTA` the E-score was 0.325.
`GTGTACAA` has an E-score of 0.269.
